Published values of several laboratories.
Each line is one published result; not all experiments were run side by side. ± gives the spread as reported.

SMILES | test | test system | setting | clearance
Cc1ccc([C@@H]2O[C@H](CO)[C@@H](O)[C@H](O)[C@H]2O)cc1Cc1ccc(-c2ccc(F)cc2)s1 | – | human, maintenance hemodialysis patients | oral, 100 mg once daily, steady state, median | 180 mL/min
NS(=O)(=O)OC[C@@H]1C[C@@H](n2ccc3c(N[C@H]4CCc5ccccc54)ncnc32)C[C@@H]1O | – | human females, plasma | median, BSA-adjusted | 17.9 L/h/m²
CO[C@]1(C(=O)N[C@@H](C)c2ccc(-n3cc(F)cn3)nc2)CC[C@H](c2nc(C)cc(Nc3cc(C)[nH]n3)n2)CC1 | – | human | oral, population PK, assumed F=0.5 | 134 mL/min
CN(C)N=Nc1[nH]cnc1C(N)=O | – | human patients, plasma | intravenous infusion, 1000 mg/m^2, 1 h infusion, cycle 1 day 1, alone | 9.62 L/h/m²
O=C(/C=C/c1cccc(S(=O)(=O)Nc2ccccc2)c1)NO | – | human patients, plasma | 2000 mg/m^2 | 23.2 L/h/m²
CC(=O)O[C@H]1C(=O)[C@@]2(C)[C@H]([C@H](OC(=O)c3ccccc3)[C@]3(O)C[C@H](OC(=O)[C@H](O)[C@@H](NC(=O)c4ccccc4)c4ccccc4)C(C)=C1C3(C)C)[C@]1(OC(C)=O)CO[C@@H]1C[C@@H]2O | – | human, plasma | intravenous infusion, 60 mg/m^2, cycle 1 day 15, with oral co-drug daily | 292 mL/min
Cn1cncc1[C@@](N)(c1ccc(Cl)cc1)c1ccc2c(c1)c(-c1cccc(Cl)c1)cc(=O)n2C | – | healthy human, plasma | intravenous, 25 mg | 583 mL/min
Cn1cnc2c(F)c(Nc3ccc(Br)cc3Cl)c(C(=O)NOCCO)cc21 | transit compartment absorption model | human, plasma | oral | 145 mL/min
NC(=O)N1c2ccccc2CC(O)c2ccccc21 (stereo not drawn) | population PK modelling | human patients, plasma | weight-scaled volume and clearance | 51.5 mL/min
CCN(CC)CCN(CCNCCc1ccc(O)c2[nH]c(=O)sc12)C(=O)CCOCCc1cccc2ccccc12 | – | human | – | 3.83 mL/min/kg
CN[C@@H](C)C(=O)N[C@H]1CN(S(=O)(=O)c2cccc(S(=O)(=O)N3CC[C@H]4CC[C@@H](C(=O)NC(c5ccccc5)c5ccccc5)N4C(=O)[C@@H](NC(=O)[C@H](C)NC)C3)c2)CC[C@H]2CC[C@@H](C(=O)NC(c3ccccc3)c3ccccc3)N2C1=O | LC-MS/MS, noncompartmental | human, plasma | 20 mg, cycle 1 day 1 | 1980 mL/min
COC[C@@H](c1ccc(C(F)(F)F)cc1)N1CCN(C2(C)CCN(C(=O)c3c(C)ncnc3C)CC2)C[C@@H]1C | – | human | population PK model, together with: ritonavir | 58.3 mL/min
CN(C)CCCNC(=O)/C(=C/CCCCC(=O)NO)COc1cccc2ccccc12 | – | human | iv, 312.5 mg/m2, day 1, single dose, mean | 118 mL/min
NC(=O)c1cnc2[nH]ccc2c1N[C@@H]1[C@@H]2CC3C[C@H]1C[C@@](O)(C3)C2 | – | human, plasma | oral | 1390 mL/min
Nc1ccn([C@@H]2O[C@H](CO)[C@@H](O)C2(F)F)c(=O)n1 | HPLC-UV | human, plasma | 800 mg/m^2, mean, before paricalcitol | 59.7 L/h/m²
Cc1cn(-c2cc(NC(=O)c3ccc(C)c(Nc4nccc(-c5cccnc5)n4)c3)cc(C(F)(F)F)c2)cn1 | population PK model | human, plasma | oral, typical value | 575 mL/min
CNC(=O)c1cc(Cl)c(OC(C)(C)C(=O)O)cc1OC[C@@H](O)CN1CCC2(CC1)Cc1cc(Cl)ccc1O2 | – | human | – | 25 mL/min/kg
CC(=O)O[C@H]1C(=O)[C@@]2(C)[C@H]([C@H](OC(=O)c3ccccc3)[C@]3(O)C[C@H](OC(=O)[C@H](O)[C@@H](NC(=O)c4ccccc4)c4ccccc4)C(C)=C1C3(C)C)[C@]1(OC(C)=O)CO[C@@H]1C[C@@H]2O | – | human | intravenous, dose not given | 432 ± 142 mL/min

Some of these lines once more:
SMILES | test | test system | setting | clearance
Cc1ccc([C@@H]2O[C@H](CO)[C@@H](O)[C@H](O)[C@H]2O)cc1Cc1ccc(-c2ccc(F)cc2)s1 | – | human, maintenance hemodialysis patients | oral, 100 mg once daily, steady state, median | 180 mL/min
CNC(=O)c1cc(Cl)c(OC(C)(C)C(=O)O)cc1OC[C@@H](O)CN1CCC2(CC1)Cc1cc(Cl)ccc1O2 | – | human | – | 25 mL/min/kg
NC(=O)N1c2ccccc2CC(O)c2ccccc21 (stereo not drawn) | population PK modelling | human patients, plasma | weight-scaled volume and clearance | 51.5 mL/min
